Assay results from different studies.
Every numbered part comes from another study and shows a few of its results, in no order.
Chain of UniProt P06493 (whole entry, looked up): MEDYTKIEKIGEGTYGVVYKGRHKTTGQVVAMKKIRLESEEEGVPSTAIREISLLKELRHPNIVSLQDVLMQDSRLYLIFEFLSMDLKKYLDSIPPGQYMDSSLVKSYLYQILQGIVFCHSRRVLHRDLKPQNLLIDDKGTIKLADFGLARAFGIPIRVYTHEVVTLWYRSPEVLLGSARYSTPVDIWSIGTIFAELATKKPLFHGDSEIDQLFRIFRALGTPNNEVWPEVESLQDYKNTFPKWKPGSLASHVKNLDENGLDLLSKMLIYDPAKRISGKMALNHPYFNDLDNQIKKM
Chain of UniProt P21917 (whole entry, looked up): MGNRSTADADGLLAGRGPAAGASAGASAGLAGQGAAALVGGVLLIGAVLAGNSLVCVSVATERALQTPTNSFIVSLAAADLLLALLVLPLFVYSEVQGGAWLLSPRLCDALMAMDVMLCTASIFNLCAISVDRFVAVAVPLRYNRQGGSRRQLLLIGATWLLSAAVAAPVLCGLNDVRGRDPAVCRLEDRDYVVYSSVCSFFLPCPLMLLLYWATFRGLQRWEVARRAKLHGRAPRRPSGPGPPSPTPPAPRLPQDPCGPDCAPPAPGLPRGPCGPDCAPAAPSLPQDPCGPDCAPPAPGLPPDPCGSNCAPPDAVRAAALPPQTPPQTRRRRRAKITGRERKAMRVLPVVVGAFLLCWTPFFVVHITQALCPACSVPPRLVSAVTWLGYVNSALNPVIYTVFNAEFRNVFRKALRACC
Chain of UniProt Q86UE8 (whole entry, looked up): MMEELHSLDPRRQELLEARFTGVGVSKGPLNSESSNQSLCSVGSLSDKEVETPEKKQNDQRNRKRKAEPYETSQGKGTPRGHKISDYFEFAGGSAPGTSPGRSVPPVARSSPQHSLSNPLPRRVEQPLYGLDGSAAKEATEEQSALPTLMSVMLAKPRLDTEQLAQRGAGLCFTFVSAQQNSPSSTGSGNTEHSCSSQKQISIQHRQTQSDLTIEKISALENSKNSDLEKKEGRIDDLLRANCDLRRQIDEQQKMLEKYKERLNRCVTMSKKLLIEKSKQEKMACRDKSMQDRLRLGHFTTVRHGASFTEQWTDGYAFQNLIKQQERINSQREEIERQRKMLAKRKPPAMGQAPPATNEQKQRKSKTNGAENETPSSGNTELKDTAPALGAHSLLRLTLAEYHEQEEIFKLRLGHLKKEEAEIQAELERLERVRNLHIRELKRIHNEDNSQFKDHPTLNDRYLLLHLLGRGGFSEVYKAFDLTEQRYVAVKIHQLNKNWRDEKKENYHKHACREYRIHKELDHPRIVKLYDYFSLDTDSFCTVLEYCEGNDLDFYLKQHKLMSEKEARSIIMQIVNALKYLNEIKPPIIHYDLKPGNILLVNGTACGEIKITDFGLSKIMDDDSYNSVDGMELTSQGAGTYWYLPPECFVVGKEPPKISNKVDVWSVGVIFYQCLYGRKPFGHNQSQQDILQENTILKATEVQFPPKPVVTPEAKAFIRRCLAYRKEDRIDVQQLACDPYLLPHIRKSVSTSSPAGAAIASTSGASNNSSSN
Chain of UniProt Q13237 (whole entry, looked up): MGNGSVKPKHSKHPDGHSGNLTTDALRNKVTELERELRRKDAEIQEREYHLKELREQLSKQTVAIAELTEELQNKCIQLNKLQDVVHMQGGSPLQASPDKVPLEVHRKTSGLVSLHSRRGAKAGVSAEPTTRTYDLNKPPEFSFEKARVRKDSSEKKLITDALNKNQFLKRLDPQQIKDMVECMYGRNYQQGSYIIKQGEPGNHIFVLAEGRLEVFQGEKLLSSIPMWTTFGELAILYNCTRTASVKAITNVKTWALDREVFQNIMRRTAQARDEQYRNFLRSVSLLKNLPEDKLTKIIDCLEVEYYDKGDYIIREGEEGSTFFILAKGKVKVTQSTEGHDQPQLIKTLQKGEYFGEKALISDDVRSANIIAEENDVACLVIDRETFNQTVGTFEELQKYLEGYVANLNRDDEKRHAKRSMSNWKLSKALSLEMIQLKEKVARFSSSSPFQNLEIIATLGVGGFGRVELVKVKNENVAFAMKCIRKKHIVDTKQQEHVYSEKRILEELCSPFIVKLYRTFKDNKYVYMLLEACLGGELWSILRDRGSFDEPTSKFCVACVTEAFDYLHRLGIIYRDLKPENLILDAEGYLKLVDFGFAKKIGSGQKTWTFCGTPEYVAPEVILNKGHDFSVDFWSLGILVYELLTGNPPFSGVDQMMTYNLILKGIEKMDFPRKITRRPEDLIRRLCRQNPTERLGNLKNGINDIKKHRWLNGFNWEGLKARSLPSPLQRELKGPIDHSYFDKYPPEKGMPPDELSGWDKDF
Chain of UniProt P18089 (whole entry, looked up): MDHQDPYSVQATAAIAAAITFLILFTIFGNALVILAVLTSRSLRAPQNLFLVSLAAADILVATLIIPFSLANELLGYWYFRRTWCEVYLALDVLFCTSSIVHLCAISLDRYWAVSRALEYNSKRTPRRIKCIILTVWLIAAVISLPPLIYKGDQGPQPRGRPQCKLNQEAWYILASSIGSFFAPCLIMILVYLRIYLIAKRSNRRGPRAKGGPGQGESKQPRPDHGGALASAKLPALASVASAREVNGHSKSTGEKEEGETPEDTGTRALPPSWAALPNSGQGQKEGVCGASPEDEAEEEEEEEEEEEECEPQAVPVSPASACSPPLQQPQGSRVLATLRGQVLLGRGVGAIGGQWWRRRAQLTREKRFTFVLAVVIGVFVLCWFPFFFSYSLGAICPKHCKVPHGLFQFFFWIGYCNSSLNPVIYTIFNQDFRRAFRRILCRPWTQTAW
Chain of UniProt Q02750 (whole entry, looked up): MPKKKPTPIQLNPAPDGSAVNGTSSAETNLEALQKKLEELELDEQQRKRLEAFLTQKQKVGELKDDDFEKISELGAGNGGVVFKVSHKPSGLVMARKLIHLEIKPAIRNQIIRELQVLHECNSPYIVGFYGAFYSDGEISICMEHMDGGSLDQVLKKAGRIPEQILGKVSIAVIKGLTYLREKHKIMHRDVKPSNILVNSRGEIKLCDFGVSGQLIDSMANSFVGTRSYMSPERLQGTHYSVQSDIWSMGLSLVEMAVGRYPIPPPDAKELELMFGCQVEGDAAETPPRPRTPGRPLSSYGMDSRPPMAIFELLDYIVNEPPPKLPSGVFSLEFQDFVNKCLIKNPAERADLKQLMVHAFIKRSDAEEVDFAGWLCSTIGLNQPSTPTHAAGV
Chain of UniProt P28482 (whole entry, looked up): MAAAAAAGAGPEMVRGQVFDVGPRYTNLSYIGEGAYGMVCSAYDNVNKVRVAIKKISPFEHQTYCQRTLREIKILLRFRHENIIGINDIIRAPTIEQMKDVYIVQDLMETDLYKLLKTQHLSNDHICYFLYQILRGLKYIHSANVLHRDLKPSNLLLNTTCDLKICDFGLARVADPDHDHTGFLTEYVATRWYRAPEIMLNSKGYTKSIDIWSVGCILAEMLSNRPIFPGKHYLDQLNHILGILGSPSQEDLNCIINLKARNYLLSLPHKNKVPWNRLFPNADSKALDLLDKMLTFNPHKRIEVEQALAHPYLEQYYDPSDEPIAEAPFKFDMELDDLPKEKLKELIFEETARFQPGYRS
Chain of UniProt P41595 (whole entry, looked up): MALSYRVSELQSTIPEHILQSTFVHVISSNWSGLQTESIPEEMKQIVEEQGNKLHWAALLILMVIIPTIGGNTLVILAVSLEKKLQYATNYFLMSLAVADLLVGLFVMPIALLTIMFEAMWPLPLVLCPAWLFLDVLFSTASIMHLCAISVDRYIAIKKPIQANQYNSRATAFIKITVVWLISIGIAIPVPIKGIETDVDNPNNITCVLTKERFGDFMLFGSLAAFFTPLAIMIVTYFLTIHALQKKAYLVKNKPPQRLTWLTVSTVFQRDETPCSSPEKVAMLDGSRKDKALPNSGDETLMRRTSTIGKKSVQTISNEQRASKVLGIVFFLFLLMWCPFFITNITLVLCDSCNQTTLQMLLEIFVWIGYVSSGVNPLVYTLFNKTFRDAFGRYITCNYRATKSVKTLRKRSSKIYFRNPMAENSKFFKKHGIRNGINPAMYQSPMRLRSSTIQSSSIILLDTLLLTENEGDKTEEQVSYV
Chain of UniProt P31751 (whole entry, looked up): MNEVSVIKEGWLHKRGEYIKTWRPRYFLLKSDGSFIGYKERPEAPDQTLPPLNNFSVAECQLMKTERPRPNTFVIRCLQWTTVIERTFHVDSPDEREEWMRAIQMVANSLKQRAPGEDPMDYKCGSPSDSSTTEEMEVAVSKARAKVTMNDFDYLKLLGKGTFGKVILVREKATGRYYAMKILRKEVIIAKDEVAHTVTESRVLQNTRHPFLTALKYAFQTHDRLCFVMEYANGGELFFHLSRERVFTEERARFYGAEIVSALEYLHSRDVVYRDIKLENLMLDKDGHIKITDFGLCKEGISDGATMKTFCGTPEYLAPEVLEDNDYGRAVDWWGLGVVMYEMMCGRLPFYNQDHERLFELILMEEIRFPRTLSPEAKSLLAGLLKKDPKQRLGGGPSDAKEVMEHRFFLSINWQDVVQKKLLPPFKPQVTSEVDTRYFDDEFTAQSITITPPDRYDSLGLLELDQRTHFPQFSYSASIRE
Chain of UniProt Q16566 (whole entry, looked up): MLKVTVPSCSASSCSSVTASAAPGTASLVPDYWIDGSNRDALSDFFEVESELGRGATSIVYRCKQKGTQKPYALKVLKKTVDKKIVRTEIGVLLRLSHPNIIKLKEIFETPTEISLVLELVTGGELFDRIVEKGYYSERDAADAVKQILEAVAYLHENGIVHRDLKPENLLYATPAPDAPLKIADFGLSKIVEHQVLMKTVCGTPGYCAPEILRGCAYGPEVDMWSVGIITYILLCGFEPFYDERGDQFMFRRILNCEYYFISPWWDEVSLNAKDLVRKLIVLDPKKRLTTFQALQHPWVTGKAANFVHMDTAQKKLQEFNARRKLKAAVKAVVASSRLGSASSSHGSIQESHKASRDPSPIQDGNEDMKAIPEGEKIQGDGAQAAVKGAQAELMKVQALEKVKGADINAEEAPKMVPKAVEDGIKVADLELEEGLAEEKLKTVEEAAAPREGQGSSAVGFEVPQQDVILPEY

Block 1
SMILES: CN1CCN(c2ccc3nc(-c4c(N)c5c(F)cccc5[nH]c4=O)[nH]c3c2)CC1
Observed: enzyme activity
Action: inhibitor
Concentration: 0.5 µM
Relative to: control
| target | remaining activity |
| --- | --- |
| DDR2 (Homo sapiens, UniProt Q16832) | 195% |
| CLK3 (Homo sapiens, UniProt P49761) | 104% |
| CAMK4 (Homo sapiens, UniProt Q16566) | 91.7% |
| MAP2K1 (Homo sapiens, UniProt Q02750) | 88.7% |
| AKT2 (Homo sapiens, UniProt P31751) | 109% |
| PLK3 (Homo sapiens, UniProt Q9H4B4) | 101% |
| CLK4 (Homo sapiens, UniProt Q9HAZ1) | 52.2% |
| TLK2 (Homo sapiens, UniProt Q86UE8) | 89.3% |
| Myosin-IIIb (MYO3B, Homo sapiens, UniProt Q8WXR4) | 79.7% |
| MAPK1 (Homo sapiens, UniProt P28482) | 82.4% |
| Cyclin-dependent kinase 1, with cyclin A (CDK1, Homo sapiens, UniProt P06493) | 93.6% |
| PRKG2 (Homo sapiens, UniProt Q13237) | 99% |

Block 2
SMILES: CC(C)n1cnc(-c2ccc(F)cc2)c1-c1ncc(C(=O)Nc2ccc(N3CCN(C)CC3)cc2)[nH]1
Technique: phase 2a clinical trial
Species: patients with idiopathic pulmonary fibrosis
| assay | conditions | patients with treatment-emergent adverse events [%] |
| --- | --- | --- |
| item: electrocardiogram high voltage | 60 mg once daily, Grade 4 | 0 |
| item: left bundle branch block | dose not given, Grade 4, all drug arms | 0 |
| item: protein urine present | dose not given, Grade 4, all drug arms total | 0 |
| item: idiopathic pulmonary fibrosis | 60 mg once daily, Grade 2 | 0 |
| item: benign prostatic hyperplasia | 30 mg once daily, Grade 3, maximum intensity | 0 |
| item: protein urine present | 60 mg once daily, Grade 3 | 0 |
| item: protein urine present | 60 mg once daily, Grade 5 | 0 |
| item: idiopathic pulmonary fibrosis | 30 mg once daily, Grade 4 | 0 |
| item: first degree atrioventricular block | 30 mg once daily, Grade 2 | 0 |
| item: first degree atrioventricular block | 30 mg once daily, Grade 3 | 0 |
| item: interstitial lung disease | dose not given, Grade 1, all drug arms | 0 |
| item: gastro-oesophageal reflux disease | dose not given, Grade 4, all drug arms total | 0 |
| item: investigations (SOC) | 60 mg once daily, Grade 3 | 0 |

Block 3
Species: mouse
Sample: microsomes or S9
Concentration: 2 µM
Time: 0.5 h
| SMILES | remaining compound |
| --- | --- |
| O=c1c2c3nc4ccccc4nc3n(Cc3ccc4c(c3)OCO4)c2ncn1Cc1ccco1 | 1.75% |
| Cc1ccc(C#N)c(NC(C)Cc2c(C)noc2C)n1 (centres unmarked) | 0.0127% |
| Cc1cc(C(O)CN2CCN(c3ccc(F)cc3F)CC2)c(C)s1 (centres unmarked) | 83.8% |
| Cc1ccc(NC(=O)NCC(C(C)C)N(C)C)cc1 (centres unmarked) | 0.053% |
| CCC(CN1CCN(C)CC1)NC(=O)Cc1csc(Nc2ccccc2F)n1 (centres unmarked) | 62% |
| CC(NS(=O)(=O)c1ccc(S(=O)(=O)NC2CCCCC2C)cc1)c1ccc(F)cc1 (centres unmarked) | 0.844% |
| CCCC(=O)c1c[nH]c2c(OCC)nccc2c1=O | 27% |
| CO[C@H]1C[C@H](C(=O)Nc2ccncc2C(C)=O)N(S(C)(=O)=O)C1 | 82.5% |
| O=C(O)c1cc2cc(-c3ccncc3)c3ccccc3c2o1 | 87.9% |
| NC(=O)C1CCCC1NC(=O)c1cc2ccccn2c1 (centres unmarked) | 97.8% |

Block 4
SMILES: N#Cc1ccc(Nc2ccc3[nH]c(=O)[nH]c3c2)c(Cl)c1
Observed: cell-free assay
Concentration: 10 µM
| target | inhibition [%] |
| --- | --- |
| ADRB2 (Homo sapiens, UniProt P07550) | -0.51 |
| HTR2B (Homo sapiens, UniProt P41595) | 11 |
| DRD4 (Homo sapiens, UniProt P21917) | -2.02 |
| HTR6 (Homo sapiens, UniProt P50406) | -1.18 |
| HTR7 (Homo sapiens, UniProt P34969) | 8.12 |
| ADRA2B (Homo sapiens, UniProt P18089) | 13.1 |

For quick reference, copied from above (block 1):
| target | remaining activity |
| --- | --- |
| TLK2 (Homo sapiens, UniProt Q86UE8) | 89.3% |
| Myosin-IIIb (MYO3B, Homo sapiens, UniProt Q8WXR4) | 79.7% |
